Published values of several laboratories.
Protocols differ between the studies behind these lines.
Organism: Trypanosoma brucei

O=C(Nc1nc2ccc(-c3ccc(F)c(F)c3)cc2s1)N1CCC(F)C1 (stereo not drawn) — EC50 (parasite growth, resazurin; 48 h): > 2000 nM
NCCN1N=C(Cl)CC1C(N)C(=O)O (stereo not drawn) — EC50 (parasite growth, resazurin; 72 h): 23700 nM
Nc1nc(NCCc2ccccc2)sc1C(=O)c1ccccc1 — EC50 (cell proliferation, resazurin; bloodstream form; 73 h): 6000 nM
O=C(NCCc1nc(-c2cccc(F)c2)cs1)N1CCc2ccccc2C1 — EC50 (parasite growth, resazurin; 48 h): > 5000 nM
N[C@H](C(=O)O)[C@@H]1CC(Cl)=NN1Cc1ccccc1 (relative stereo) — EC50 (parasite growth, resazurin; 72 h): > 500000 nM
Nc1nc(NC2CCCCC2)sc1C(=O)c1ccccc1 — EC50 (cell proliferation, resazurin; bloodstream form; 73 h): 100 nM
Cc1ccc(C(=O)Nc2ccc(S(=O)(=O)O)c3cc(S(=O)(=O)O)cc(S(=O)(=O)O)c23)cc1NC(=O)c1cccc(NC(=O)Nc2cccc(C(=O)Nc3cc(C(=O)Nc4ccc(S(=O)(=O)O)c5cc(S(=O)(=O)O)cc(S(=O)(=O)O)c45)ccc3C)c2)c1 — EC50 (parasite growth, resazurin; 48 h): 40 nM
COc1cccc(OC)c1C(=O)c1sc(Nc2ccccc2)nc1N — EC50 (cell proliferation, resazurin; bloodstream form; 73 h): 400 nM
CCN1N=C(Cl)C[C@H]1[C@H](N)C(=O)O (relative stereo) — EC50 (parasite growth, resazurin; 72 h): > 500000 nM
Cc1cccc(C)c1Nc1nc(N)c(C(=O)c2ccccc2)s1 — EC50 (cell proliferation, resazurin; bloodstream form; 73 h): 9000 nM
O=C(Nc1ccc2oc(-c3ccccc3)nc2c1)N1CCCCC1 — EC50 (parasite growth, resazurin; 48 h): ≥ 2800 nM
COC1=NO[C@H]([C@H](N)C(=O)O)C1 — EC50 (parasite growth, resazurin; 72 h): > 100000 nM
CC(C)(C)C(=O)c1sc(NC2CCCCC2)nc1N — EC50 (cell proliferation, resazurin; bloodstream form; 73 h): 300 nM
O=C(NCCc1nc(-c2cccc(F)c2)cs1)N1CCCc2ccccc21 — EC50 (parasite growth, resazurin; 48 h): > 5000 nM
CC(=O)OC[C@H]1O[C@@H]([Se]Cc2ccc3ccccc3n2)[C@H](OC(C)=O)[C@@H](OC(C)=O)[C@@H]1OC(C)=O — EC50 (parasite growth; 24 h): 1200 nM
COc1cc(N2C(=O)CN(Cc3ccc(F)cc3Cl)C2=S)ccc1N(C)C — EC50 (parasite growth, resazurin; 48 h): 2 nM
O=C(NCCc1nc(-c2cccc(F)c2)cs1)N1CCCC(F)C1 (stereo not drawn) — EC50 (parasite growth): < 50 nM
COc1ccc2c(C[Se][C@@H]3O[C@H](CO)[C@H](O)[C@H](O)[C@H]3O)cc(=O)oc2c1 — EC50 (parasite growth; 24 h): 4100 nM

Some of these lines once more:
O=C(NCCc1nc(-c2cccc(F)c2)cs1)N1CCc2ccccc2C1 — EC50 (parasite growth, resazurin; 48 h): > 5000 nM
CC(C)(C)C(=O)c1sc(NC2CCCCC2)nc1N — EC50 (cell proliferation, resazurin; bloodstream form; 73 h): 300 nM
